Measured values collected from several papers.
A part holds a random share of what one study measured. Substitutions count along the parent as printed.

Series 1
Target: ABI1, truncated, D143A, DHFR fusion (Arabidopsis thaliana)
Technique: DHFR PCA, deep sequencing
Matrix: yeast
Setting: methotrexate growth selection, single substitutions
Together with: (+)-ABA 0.11 µM
Baseline: wild-type fitted maximum
Direction: higher = stronger binding
Measurement: relative binding score
Starting sequence: PYL1, truncated, DHFR fusion (Arabidopsis thaliana); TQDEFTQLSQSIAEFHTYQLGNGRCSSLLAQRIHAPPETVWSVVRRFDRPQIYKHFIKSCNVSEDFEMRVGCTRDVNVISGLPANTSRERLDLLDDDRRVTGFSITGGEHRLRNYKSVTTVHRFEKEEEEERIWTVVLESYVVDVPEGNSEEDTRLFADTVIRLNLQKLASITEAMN
L112P: 8.3%
R24M: 13%
V136W: 2.52%
P83C: 13.1%
S104V: -2.76%
K58Q: 13.1%
M68D: -0.719%
F5N: -0.904%
D48R: -3.82%
S26D: -3.88%
N77E: 64.3%
E174Q: 10.9%
L164N: 0.793%
I172A: -5.42%
H55G: 19.1%
Q167R: 35.9%
V137S: -3.59%
C72H: -0.342%
T106K: -3.53%
E139M: 9.16%
N177D: 54.5%
K116F: -3.21%
R111I: 3.63%
G23M: 5.66%
D159I: -2.86%

Series 2
Target: Ras GTPase-activating protein-binding protein 1, RRM domain (G3BP1, Homo sapiens, UniProt Q13283)
Chain of UniProt Q13283 (whole entry, looked up): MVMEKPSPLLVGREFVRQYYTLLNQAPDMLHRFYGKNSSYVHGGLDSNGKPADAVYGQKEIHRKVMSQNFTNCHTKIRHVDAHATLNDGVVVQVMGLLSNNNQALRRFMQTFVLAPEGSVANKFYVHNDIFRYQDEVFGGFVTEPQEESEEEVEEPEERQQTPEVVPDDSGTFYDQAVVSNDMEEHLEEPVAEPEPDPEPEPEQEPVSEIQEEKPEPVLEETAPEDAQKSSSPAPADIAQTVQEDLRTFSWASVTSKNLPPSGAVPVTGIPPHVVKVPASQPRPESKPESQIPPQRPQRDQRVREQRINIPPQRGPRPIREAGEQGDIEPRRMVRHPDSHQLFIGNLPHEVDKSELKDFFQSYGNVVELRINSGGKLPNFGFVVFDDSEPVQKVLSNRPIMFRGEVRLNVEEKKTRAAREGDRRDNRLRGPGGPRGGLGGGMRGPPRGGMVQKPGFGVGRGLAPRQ
Technique: RNA Bind-n-Seq
Form: RNA
Matrix: in vitro
Concentration: 1 µM
Setting: whole 134-nt RNA, ends assumed
Together with: 150 mM KCl
Baseline: input library
Direction: higher = stronger binding
Measurement: log2 enrichment
All sequences stand within: GGGAGUUCUACAGUCCGACGAUC … UGGAAUUCUCGGGUGUCAAGG
AGUCCUGUGCUACACAUCGUAUGUACCGAAUCGGUUUUUGGUUUUUGGGUUUUUGGGGAAAGUAUUAUGUUACGCCGUUCGGAUCUGCAC: -0.176
CUGUGCUACACAUCGUAUGUACCGAAUCGGAAAAAAAGGGAAAAAAAGGGGAAAAAAAGGGGAAAGUAUUAUGUUACGCCGUUCGGAUCU: 0.174
AACAUGCAGGUGGGCAUCUUUGGGAAGUGGGGCAAGGGGGGGAUAGGGAGGGGGGUAACACUUUGGGAACAGGUGGUCCCAGGUCGUUUC: -0.609
UUCCAUUGUGAACGUGCCUGGUGAGUCUACUCUUCGCCGAGAUUUCCUGAGACUGCAGCAGGAGAACAAGGAACGUUCCGAGGCUCUUCG: 0.0316
UCUAACUAAUUUUUCUUUGUUUUUUAACAGGAGAGGAGAUACUUACCCUUAAGUCAAGCCAGAAAAAGUGGUUUCCAAAUGGAUUGGCUG: -0.504
UCCUGUGCUACACAUCGUAUGUACCGAAUCAAAUUUUUUUAAACCCAAACCCCCCCAAAAAAGUAUUAUGUUACGCCGUUCGGAUCUGCA: -1.17
AGUCCUGUGCUACACAUCGUAUGUACCGAAUCGGGGAGGGGUUUUUUUGGGGAGGGGAAAGUAUUAUGUUACGCCGUUCGGAUCUGCACU: 0.986
CUCAAGUCCUGUGCUACACAUCGUAUGUACCGAAUCGGAGGAAAAAAAGGUGGAAAGUAUUAUGUUACGCCGUUCGGAUCUGCACUUCCA: -0.27
AAGUCCUGUGCUACACAUCGUAUGUACCGAAUCGGGGUUUGGGGAAAGGGGAGGGGAAAGUAUUAUGUUACGCCGUUCGGAUCUGCACUU: 1.31

Series 3
Target: CCND1, cyclin fold, Cln2 fusion (human)
Technique: yeast growth competition, sequencing
Matrix: yeast
Setting: weak parent motif
Baseline: not given
Direction: higher = stronger binding
Measurement: normalised enrichment score
Starting sequence: BRCA2 docking peptide (human); PSIKRNLLNEFDR; partner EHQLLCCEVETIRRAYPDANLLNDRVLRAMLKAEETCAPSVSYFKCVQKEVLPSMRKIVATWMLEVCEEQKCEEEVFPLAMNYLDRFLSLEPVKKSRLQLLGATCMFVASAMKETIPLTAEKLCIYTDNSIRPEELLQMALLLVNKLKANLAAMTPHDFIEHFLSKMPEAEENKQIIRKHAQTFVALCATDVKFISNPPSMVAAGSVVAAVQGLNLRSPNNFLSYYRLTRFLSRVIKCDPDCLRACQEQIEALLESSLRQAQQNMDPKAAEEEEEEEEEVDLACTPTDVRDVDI
PSIKRNLLNEFRR [D12R]: 0.638
PSIKFNLLNEFDR [R5F]: -0.256
QSIKRNLLNEFDR [P1Q]: 1.07
PSIKRNLLNEQDR [F11Q]: -0.008
PSIKRNLLWEFDR [N9W]: 0.905
ISIKRNLLNEFDR [P1I]: 0.274
PSIKRNLLNEYDR [F11Y]: 0.361
PSIKRNLLDEFDR [N9D]: 1.31
GSIKRNLLNEFDR [P1G]: 0.422
PSIKRGLLNEFDR [N6G]: 0.0676
PSIKVNLLNEFDR [R5V]: 0.219
PSIKRNELNEFDR [L7E]: -0.202
PSIKRNLLNEVDR [F11V]: 0.786
PSIKRNLLNEFVR [D12V]: 0.684
PYIKRNLLNEFDR [S2Y]: 0.317
PSPKRNLLNEFDR [I3P]: 0.994
PSIKRNLLNHFDR [E10H]: 0.324
CSIKRNLLNEFDR [P1C]: 1.13
PSIMRNLLNEFDR [K4M]: 0.461
PSIKRPLLNEFDR [N6P]: 0.684
PSSKRNLLNEFDR [I3S]: 0.524
PSIKRNLLNGFDR [E10G]: -0.0695

Series 4
Target: Histone acetyltransferase KAT6A, both winged helices, GST fusion (KAT6A, Homo sapiens, UniProt Q92794, residues 1-181)
Technique: protein binding microarray
Form: double-stranded DNA, one strand shown
Matrix: in vitro
Concentration: not given
Setting: 8-mer, flanks averaged, mean of 2 arrays, mostly near background
Baseline: not given
Direction: higher = stronger binding
Measurement: E-score
Residues (chain): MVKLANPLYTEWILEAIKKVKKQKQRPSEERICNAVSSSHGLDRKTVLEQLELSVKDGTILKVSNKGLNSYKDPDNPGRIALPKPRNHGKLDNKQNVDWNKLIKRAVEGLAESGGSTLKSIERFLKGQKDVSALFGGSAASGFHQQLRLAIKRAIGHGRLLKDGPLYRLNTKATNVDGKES
CTTATGTC: -0.0153
CAGTAGGG: -0.175
AGACTAGG: -0.108
AAACGACT: -0.118
CCAGGCCC: -0.152
ATTTCCCC: -0.1
CAGATATG: -0.111
ACTTCTGC: 0.125
ACTAGTCA: -0.181
ACTGATTG: -0.3
CCAGGTAA: -0.118
ATAGAATG: -0.0672
GAACGAAA: -0.147
CCGCCCTC: 0.197
GTAGTCAA: -0.116
CGAAACGA: 0.00543
CCGCAAAG: 0.222
CAAGCCGA: 0.163
AATGACCG: 0.108
GCTGATTA: 0.0452
GTGCAAGA: 0.0142
ATTACGAA: 0.0186
TCCTGTCA: 0.0219
ACCAGCAG: -0.205
ACACACGC: 0.119

For quick reference, copied from above (series 4):
ACTGATTG: -0.3
AGACTAGG: -0.108
TCCTGTCA: 0.0219
CCAGGTAA: -0.118
GTAGTCAA: -0.116
ACCAGCAG: -0.205
CAGTAGGG: -0.175
CAAGCCGA: 0.163
GAACGAAA: -0.147
CAGATATG: -0.111
